Published values pooled from the literature.
Each numbered part is a random draw from the data of one study; scales do not carry over between parts.

Series 1 — technique: protein binding microarray; molecule type: double-stranded DNA, one strand shown; sample: in vitro; concentration: not given; reference: not given; direction: higher = stronger binding
Target: Histone acetyltransferase KAT6A, both winged helices, GST fusion (KAT6A, Homo sapiens, UniProt Q92794, residues 1-181)
Setting: 8-mer, flanks averaged, mean of 2 arrays, mostly near background
Construct (chain): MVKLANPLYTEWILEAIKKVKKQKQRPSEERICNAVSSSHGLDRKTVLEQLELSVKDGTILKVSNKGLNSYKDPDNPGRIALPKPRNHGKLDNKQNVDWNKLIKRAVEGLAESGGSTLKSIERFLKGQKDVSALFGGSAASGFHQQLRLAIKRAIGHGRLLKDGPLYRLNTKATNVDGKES
Oligonucleotide | E-score
CGTCGGAG | 0.217
CGGGCACC | 0.234
GCATTGTA | 0.029
TAAGCGAA | 0.0626
AATGGTAC | -0.0917
TCGCCCCA | -0.251
GGGTGTAA | 0.0503
CCACCTAG | -0.0654
CCAATTAA | -0.153
GGGGGCCA | -0.00064
CAGATTCC | 0.0324
AGCACCAC | -0.148
GCGAATAA | 0.112
CTGGGGTC | -0.283
GCCGCAGC | 0.232
TACATGTA | -0.0788
AGGCATGC | 0.0267
CACCTTGG | -0.199
CTTAGCGA | 0.0999
CACTGATC | -0.149
CTCACGTA | -0.21
GATCGGGC | 0.195
AACGTATG | -0.0488
GATTGGGA | -0.244
ACCAAAGA | -0.138

Series 2 — technique: RNA Bind-n-Seq; molecule type: RNA; sample: in vitro; concentration: 365 nM; reference: no-protein control; direction: higher = stronger binding
Target: RNA binding protein fox-1 homolog 2, RRM domain, GST-SBP tag (RBFOX2, Homo sapiens, UniProt O43251-10, residues 100-194)
Setting: natural RNA segment, single round, ends assumed
Shared flanks, not repeated: GGGAGUUCUACAGUCCGACGAUC … UGGAAUUCUCGGGUGCCAA
Residues (chain): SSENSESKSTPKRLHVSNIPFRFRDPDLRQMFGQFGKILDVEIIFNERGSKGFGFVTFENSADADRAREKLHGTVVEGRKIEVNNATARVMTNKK
Oligonucleotide | RBNS enrichment (R)
CCUGUGUGUGCUGCUUGCUCCUGUUCUGUUCGCUUGCUCCCGUUCCGUUCGGCUUUUGCUUUGCGUUAGGGUGAAGACCCUAGCGUCCAGCUCCCCUCAACGCUAUAUUU | 0.556
GCAUUCAUGAGGUUGGAGAGACUAUGAGAAAUAUGUAUAGUGUAUAUUUUAAACAGCUUUGCUUGUAUUGUGAAGAUUUAAGAACAAACUUGAGAUUUUUAAAGUUAACU | 0.948
UUAACUCUAGCUUCCAUGUCUGUCUUUAUUACCUUCAUCUUCCUACUUCCUGUCCCACCGGCAUCUCACUUAAUUGAGCCUAAUGUCAGUAUCUGUGUGUGCCAAUGCUG | 0.876
UCAAAAAACCUUUACAGUUAGCAGGGAUGUUCCUUACCAAGGAUUUUUAGCCCCAAAUCUCUCAUAUUCGCUAGUGUUUAAAAGGCUAAGAAUAGUGGGGCCCAGCCGAU | 0.498
UUGCACUAAAGAAAGCUUGUUAGAAAAAGCUUGCUGCUAUGGAAGAAAGAACAUAUUAAAACUUCUUUCCCUUGCGAUUUUUUUGGGGGAGGGGGGUUAGCAUUUCCACU | 0.359
CCACUGUCCUUCCUGGUCUCGCACUGCCACUGCAUGGCCUCCUGUCACUGUGAAUCGUGGCCCAGUCUCAGUUUGUAGUUUCUCAUUAAAUUGGCCCUUUCACUCCCCCG | 1.11
CAUCACACUGAACAGGAUGUGGCCUGCUGACAGUGAGUAGCUGAAGUGCCUGUUUGGUAAGUAGGUUAGCAUUCAUCAUGAACUCUGAAAGCCAUUUCAGAGUUUGGCUG | 0.396
AAAAUUCACUGGGGACUUUUCCCACCACACAUGGAAAUCUGUCCACUCGGAAUACCUCUGUUUUCCAUUUCAAAUUGUAGGGGGAGGGGAUGGAACACUUCCAGUGAUGG | 0.47
UGGAGGUUGCCCUGCAUCCCCCCUCCUCUGCCUGAGUGUGUCUUUGUAAUGUCAGCUGGCAUCAUACAAAGAGCAGGAGAAGCAAACACCCAGAACUCUUUUGCUGGUCA | 0.843
CUGUUCCCUUGAUAGCUUCGGGUCAUUGGUGGCAGCUCAUGUCCUCGGCGCUCCUUGUGUGGAGGCCAUUCUUUUUUCAAUGGGUAUCACAUGGUUUUGCCAUCCCUAAG | 0.396
UGCCUUUCUUCAUUGCUGAUUUUAAUCUGUAUCCUUUCACUGUAAUAAACUGUAACUAUGAGUGCAACACUUUGCUGAGUUCUGUGAGUCCUUCUAGUGAAUCACUGAAC | 0.488
CCUGGCAAGUGGCCACGCCCUGUGUCAGACCAUCUGGGAAUUAAGCUCCAGACAGACUUACAGAUGCCUUCCUUAGGAGUUCUUGCUUCUUGCGUUGAUACUUUGCCCCA | 0.381

Series 3 — technique: protein-binding microarray; molecule type: double-stranded DNA, one strand shown; sample: in vitro; concentration: 250 nM; setting: 60-bp whole probe; with: salmon DNA 0.4 mg/ml; reference: random background probes; direction: higher = stronger binding; shared flanks, not repeated: GCCTAGCAC … GTCTTGATTCGCTTGACGCTGCTG
Target: Interferon regulatory factor 5, full length, phosphomimetic (IRF5, Homo sapiens, UniProt Q13568-2, residues 1-514, K96S/S451D/S453D/S456D/S462D)
Oligonucleotide | log fluorescence [z-score]
CCGAGTCCCTATCTCCTCACGTGCTAG | 0.0138
AGTTTATTTATTTTTACATTGTGCTAG | 1.2
TTAGGACTGGGGACTGGTTTAGTGCTA | -0.397
TTTCCCATGAGTCTCAAAATGTGCTAG | 1.73
TCCTCTGTCATTTTCTCTTAGTGCTAG | 1.78
TTAGATTGCGGGTTTCGATTAGTGCTA | 6.6
TTAGGTCTCGGTTACGGTTAGTGCTAG | 1.01
ATATATATCCATTATAGATGGTGCTAG | 0.364
GACGTTTTCGGGACTGGAGACGTGCTA | 2.99
TCTGATTTTGCTTTCATTTAGTGCTAG | 4.31
GACGATATCAGAATCGAGACGTGCTAG | 0.888
TCATTTTTTTCTATATGACTGTGCTAG | 2.11
TTAGGCATCCTTTTCCTTTAGTGCTAG | 0.185
TTAGGCTTCGGGACTGGGTTAGTGCTA | -0.149
GTAGGACTGCTTATCCTTTAGTGCTAG | -0.448
TCAAGTTTCATTCCTGAACTGTGCTAG | 3.47
TTAGAACTGGCGTATCGATTAGTGCTA | 1.94
TACGGTTTCGACTATCGGGACGTGCTA | 7.26
GACGGCATCGGGACTGGGGACGTGCTA | -0.519
TTAGGCTCCGGTTTCGGTTAGTGCTAG | 8.29
TCAGTTTTCAGCTGTTTTACTGTGCTA | 1.63
TCAAATCTTTTTCCCTAACTGTGCTAG | 1.03
GAGGGTTTCGGTTTCGGGACGTGCTAG | 9.89
GTCGGTCTCCTTATCCTGACGTGCTAG | 0.0624
TTAGGTATCCTTATCATTTAGTGCTAG | 0.638

Series 4 — technique: aptamer microarray, sandwich; molecule type: DNA with 2'F-ANA; sample: in vitro; concentration: 200 nM; with: Cy3 exosite-II aptamer, 400 nM; direction: higher = stronger binding; oligonucleotide: GGTTGGTGTGGTTGG
Target: Prothrombin, mature alpha-thrombin (F2, Homo sapiens, UniProt P00734)
Setting: whole 15-mer aptamer, many near background
Modification | mean fluorescence intensity [a.u.]
2'F-ANA at 3 10 12 13 14 | 508
2'F-ANA at 1 2 4 5 7 14 15 | 43.5
2'F-ANA at 1 3 4 5 8 9 11 12 14 15 | 60.1
2'F-ANA at 3 4 9 11 | 620
2'F-ANA at 1 5 7 8 9 12 13 15 | 79.4
2'F-ANA at 5 7 12 14 15 | 47.4
2'F-ANA at 3 6 8 10 11 13 | 440
2'F-ANA at 1 2 4 6 8 9 10 12 13 14 15 | 64.3
2'F-ANA at 4 6 8 9 10 13 | 93.2
2'F-ANA at 1 2 4 8 13 15 | 103
2'F-ANA at 2 4 7 8 11 12 | 575
2'F-ANA at 1 2 4 5 8 10 12 14 15 | 51.4
2'F-ANA at 1 2 3 6 7 10 11 13 | 70.6
2'F-ANA at 3 8 9 12 13 15 | 1130
2'F-ANA at 1 2 3 4 5 6 7 8 14 15 | 56.6
2'F-ANA at 3 4 7 8 9 10 11 12 13 | 319
2'F-ANA at 1 4 7 9 10 11 12 13 14 15 | 52.3

Series 5 — technique: universal PBM; molecule type: double-stranded DNA, one strand shown; sample: in vitro; concentration: not given; direction: higher = stronger binding
Target: Sal-like protein 4, full length isoform B (SALL4, Homo sapiens, UniProt Q9UJQ4-2, residues 1-616)
Setting: 8-mer, flanks averaged, mean of replicates
Oligonucleotide | E-score
ATTGATAA | 0.317
TGAGATAA | 0.239
AATATGCT | 0.342
CCACCAGA | -0.178
GACAGTAC | 0.0853
ATTGTCGG | -0.0661
CAACGCGC | -0.111
ACCTGACT | 2e-05
GATGACAC | -0.129
TCAAAACA | 0.16
CCCCGAGG | -0.373
ACACTGGG | -0.121
CTGTGTAA | 0.13
CGAGGACC | -0.213
ATACTGGA | 0.144
ACTAGTAC | -0.0117
GGGCGGGA | -0.264
GCCACGTA | -0.0568
ATGGTGTA | 0.228
ACACCATA | 0.194
GTCTTAGA | 0.0255
GGTATTTA | 0.194
ACCGTTCT | -0.128
ACGTCTGA | 0.101
ACCGAGTC | -0.183
